Results collected from several papers.
Each numbered part is a random draw from the data of one study; scales do not carry over between parts. Positions count from the first letter of the parent shown.

Sample 1 — technique: RNA Bind-n-Seq; molecule type: RNA; medium: in vitro; concentration: 365 nM; relative to: no-protein control; direction: higher = stronger binding; measurement: RBNS enrichment (R)
Target: RNA binding protein fox-1 homolog 2, RRM domain, GST-SBP tag (RBFOX2, Homo sapiens, UniProt O43251-10, residues 100-194)
Notes: natural RNA segment, single round, ends assumed
Residues (chain): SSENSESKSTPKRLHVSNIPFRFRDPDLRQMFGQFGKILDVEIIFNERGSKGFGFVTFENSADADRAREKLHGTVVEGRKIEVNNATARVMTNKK
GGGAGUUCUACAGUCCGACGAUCUUCAUUUAGAGACCACAGUAACAACAGCAGCCCACCAAUCAGAGAAGCUGGUUGUUAUUAACCAAGCUACAGAUUCACACUUUCUGGCCUAAACCCUAAUGGGAUGAGGCUGGAAUUCUCGGGUGCCAA: 0.264
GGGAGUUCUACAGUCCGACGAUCAGCCUCUGUAACUCCCUUUUGUCCAUAGGUGUUGCGUGCCUCUCAUCUGUGGGGAAGUAUUAUUUAAUAAAAUUUAUGUUACAGGAUAACUUUAUUUUAAUGGGCAUGGGUGGAAUUCUCGGGUGCCAA: 4.25
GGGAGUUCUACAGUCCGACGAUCUCCUUGAUGUCCCGUUCUCUUCCACAGCCCUGAGGUCUUACGAAUUUUUCUACUUUCUUUUUGCUGUUGAUGAAUUGUUUCAUUAUUAAAUAUAUGCAUGUAUCAAAGCUUGGAAUUCUCGGGUGCCAA: 17.6
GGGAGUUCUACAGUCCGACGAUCUUAAUUCAGUCUCAGCUGCUGAAAUUUGGAAAGGACCAAAUUGCUUUACAGUUUUUUUCUUUGUGUAGUAUCUUGAAAUCCUGGAAAAUUCUAUGGAAUAGUUCUGUAUAUGGAAUUCUCGGGUGCCAA: 0.638
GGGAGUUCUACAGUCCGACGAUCCUUAUAAGCAUGUGAAGAUGUGAUCUUUGUGAUGUUACUUGUACAAACAUAUAUACAUAUCUAUACAUAUCUUUUGAAGUGUUGAAAGGAAUAGUACUUUAUAUUCUUUAUGGAAUUCUCGGGUGCCAA: 1.25
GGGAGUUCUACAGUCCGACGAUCGCCUCCAGCCAGGGCCCUCUAGGGGAACCAAGCCUCUGCUCUCACCUGUGGGUUCUUGCCCAUCAGGGUAAUUGUAUUGAGAACUCAAAUAUACGUGCACUUACAUGUGUUGGAAUUCUCGGGUGCCAA: 0.218
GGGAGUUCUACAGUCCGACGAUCAAAUUGUUAUAACUUCACACCUUUUUGAAAUCUGCCCUACAAAAUUUGUUUGGCUUAAACGUCAAAAGCCGUGACAAUUUGUUCUUUGAUGUGAUUGUAUUUCCAAUUUCUGGAAUUCUCGGGUGCCAA: 0.464
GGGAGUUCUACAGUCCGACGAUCCGCCUCUCUGUAGCUAAGCACAGUUAGGCUGGGUGAUUUGGAUCCCGACUCGCAUCUGGUAUUGUAGACCUUUUACCUCUCAUCCGUUGUGCUUACUAACAAAAUGUGAAUGGAAUUCUCGGGUGCCAA: 1.97
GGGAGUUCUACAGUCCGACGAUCGUAGACUGUGGAAGGUGUUGAUUAUGUUUCCUCUGGGGCCUGGUAGGAUGCUAAUCCCUAGAGCAGUUUACCAGCUAUGUGUGAAAUUGAAGCAGGUACCAUGGAUGACAUGGAAUUCUCGGGUGCCAA: 2.28
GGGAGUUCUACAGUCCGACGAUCCGGUUCAGGGCAGUGCUCAGCAGCUGUGUGCUCCCCUGGUUGGGUCAUUAACCCUGCAGCUGCCUGGUCUUGUCUGCUGGAGGGAGGAGAACACAGCCAUCUUGGCCCACUGGAAUUCUCGGGUGCCAA: 0.493
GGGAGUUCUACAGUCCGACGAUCAGUCAAGAAGAAGCAGGAGCAGCCCUGCCCCCUGCCCCCAACUCCAUUAUUUAUUACGGAGCUGCCCCGCCUGGGUGGCCGGACCCCUGGGCCUUGGGGCUGUGGAUCCUUGGAAUUCUCGGGUGCCAA: 0.293
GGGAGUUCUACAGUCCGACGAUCCAAUUUUAAACAUGUAAAAUGGAUAUAUAAUUUGCCAAAGGUAAUUAAUUUAUUCUUUUUUUCUUAAAGAAGAAAAAGACAUUGGUUGUUGUUACAAAAAGUCUAAAUUAUGGAAUUCUCGGGUGCCAA: 0.618

Sample 2 — technique: RNA Bind-n-Seq; molecule type: RNA; medium: in vitro; concentration: 200 nM; notes: whole 134-nt RNA, ends assumed; with: 150 mM KCl; relative to: input library; direction: higher = stronger binding; measurement: log2 enrichment
Target: Fragile X messenger ribonucleoprotein 1, C-terminal low-complexity region (Fmr1, Mus musculus, UniProt P35922)
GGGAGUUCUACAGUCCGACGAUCUAACUUUAGAGGAGGAUCUGAUGGAUAUGGCAGUGGACGUGGAUUUGGGGAUGGCUAUAAUGGGUAUGGACGAGGACCUGGAGGUGGCAAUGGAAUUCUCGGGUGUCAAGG: 0.219
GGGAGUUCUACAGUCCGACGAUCUCCUGUGCUACACAUCGUAUGUACCGAAUCGGCCCCCCGGGCCCCCCGGGGCCCCCCGGGAAAGUAUUAUGUUACGCCGUUCGGAUCUGCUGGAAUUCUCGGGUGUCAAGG: -0.496
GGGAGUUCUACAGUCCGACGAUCAAGUCCUGUGCUACACAUCGUAUGUACCGAAUCGGGGCCCCGGCCCCGGCCCCGGGAAAGUAUUAUGUUACGCCGUUCGGAUCUGCACUUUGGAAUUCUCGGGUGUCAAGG: -0.782
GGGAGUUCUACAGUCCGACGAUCACCAUGCAGGUGGGCAUCUUUGGGAAGUGGGGCAAGGGGGGGAUAGGGAGGGGGGUAACACUUUGGGAACCGGUGGUCCCAGGUCGUUUCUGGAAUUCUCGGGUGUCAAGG: 0.345
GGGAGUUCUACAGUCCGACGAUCCCUCAAGUCCUGUGCUACACAUCGUAUGUACCGAAUCGGUUGGGUUGGUUGGAAAGUAUUAUGUUACGCCGUUCGGAUCUGCACUUCCAGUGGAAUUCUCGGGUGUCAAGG: 0.291
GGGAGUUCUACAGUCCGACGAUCUCAAGUCCUGUGCUACACAUCGUAUGUACCGAAUCGGGCCCGGGCCCGGCCCGGAAAGUAUUAUGUUACGCCGUUCGGAUCUGCACUUCCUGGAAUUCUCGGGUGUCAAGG: -0.728
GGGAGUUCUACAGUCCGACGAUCGUCCUGUGCUACACAUCGUAUGUACCGAAUCGGGGAAAAAGGGGAAAAAGGGGUGGGGAAAGUAUUAUGUUACGCCGUUCGGAUCUGCACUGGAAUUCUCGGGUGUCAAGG: 0.35
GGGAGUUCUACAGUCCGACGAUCUGGGAGGUGGAUUUUGUUUAUUUUUUUAGCUCAUUUCCAGGGGUGGGAAUUUUUUUUUAAUAUGUGUCAUGAAUAAAGUUGUUUCUGAAAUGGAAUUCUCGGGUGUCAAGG: 0.444
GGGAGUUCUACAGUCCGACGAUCCACAGACAACACGCACCCACACAGACACGGAGGGAAGGGGUUGGGAUGGGGACAGGGUGCACAGCAGGGCGGGGUAGGACCCCAGCCCCUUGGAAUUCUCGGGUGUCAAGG: 1.25
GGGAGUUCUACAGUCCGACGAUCGCAGGAAGUAAAAACAAAUGGAAAUGCUUCCGAUAGUGGCAGGGGUGGGGGUUGCUAAGGAAAGGGUGGGAUGGGAGUGGGUAAAGAGUUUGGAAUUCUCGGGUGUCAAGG: 0.169
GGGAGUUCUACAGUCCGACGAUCCCUCAAGUCCUGUGCUACACAUCGUAUGUACCGAAUCGGAAGGGAAGGGAAGGAAAGUAUUAUGUUACGCCGUUCGGAUCUGCACUUCCAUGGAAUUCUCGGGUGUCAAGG: -0.317
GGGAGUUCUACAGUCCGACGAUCUUUCUGUGUGCUUAGGUGCCCGAGCUACUGAGGGUCUAAGUCCGGGCAGCCGAAGAGUGUGGUAGGUAACGGUCCUCAGCGCAAGGGUCAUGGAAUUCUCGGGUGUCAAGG: -0.414
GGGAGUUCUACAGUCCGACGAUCGUCCUGUGCUACACAUCGUAUGUACCGAAUCGGGGAAAGGGGUUUGGGGUUUUUGGGGAAAGUAUUAUGUUACGCCGUUCGGAUCUGCACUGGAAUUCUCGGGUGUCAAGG: 0.62
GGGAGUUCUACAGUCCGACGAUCUAACUUUAGAGGUGGAUCUGAUGGAUAUGGCAGUGGACGUGGAUUUGGGGAUGGCUAUAAUGGGUAUGGAGGAGGACCUGGAGGUGGCAAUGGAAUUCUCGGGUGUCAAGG: 0.288

Sample 3 — target: CCNA2, cyclin fold, Cln2 fusion (human); technique: yeast growth competition, sequencing; medium: yeast; notes: strong parent motif; relative to: not given; direction: higher = stronger binding; measurement: normalised enrichment score
Starting sequence: SCAPER docking peptide (human); SNARRSLNFGGST; partner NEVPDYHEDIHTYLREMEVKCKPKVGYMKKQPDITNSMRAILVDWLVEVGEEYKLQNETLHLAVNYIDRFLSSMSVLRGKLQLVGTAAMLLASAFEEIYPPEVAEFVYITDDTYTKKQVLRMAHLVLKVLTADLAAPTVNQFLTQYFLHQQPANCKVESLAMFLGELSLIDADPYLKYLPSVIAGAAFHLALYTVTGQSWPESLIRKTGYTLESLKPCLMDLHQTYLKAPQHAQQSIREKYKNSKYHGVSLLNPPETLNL
R5A: 1.11
G10E: 5.65
L7W: 0.738
S6T: 5.66
R5D: -0.0331
S12R: 5.12
F9H: -0.0688
A3R: 0.659
S6A: 6.99
N2I: 5.5
S6E: 5.3
S12A: 6.62
G11F: 6.18
R5L: 0.728
F9A: 0.668
A3N: 1.74
R4C: 4.96
R4N: 1.92

Sample 4 — technique: DHFR PCA, deep sequencing; medium: yeast; with: (+)-ABA 0.39 µM; relative to: wild-type fitted maximum; direction: higher = stronger binding; measurement: relative binding score
Target: ABI1, truncated, D143A, DHFR fusion (Arabidopsis thaliana)
Notes: methotrexate growth selection, single substitutions
Starting sequence: PYL1, truncated, DHFR fusion (Arabidopsis thaliana); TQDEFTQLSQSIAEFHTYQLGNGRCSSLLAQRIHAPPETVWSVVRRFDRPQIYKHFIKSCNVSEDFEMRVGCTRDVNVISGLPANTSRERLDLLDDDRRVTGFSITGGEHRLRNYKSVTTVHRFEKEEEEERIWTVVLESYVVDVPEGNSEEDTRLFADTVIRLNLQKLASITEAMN
Q51Y: -9.79%
A30D: 7.15%
E139G: -7.08%
V118F: -7.96%
V161H: 42%
A84E: 14.3%
E109R: 6.81%
N22C: 23%
T73N: 3.59%
G21K: 44.5%
S171Q: 60.5%
R98V: -1.58%
V76R: -7.81%
E128K: 33.7%
A35T: 5.04%
K58R: 43.6%
R32V: 58.7%
P50G: -7.53%
T1G: 40.3%
T106L: 67.8%

For quick reference, copied from above (sample 2):
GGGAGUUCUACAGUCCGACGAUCCCUCAAGUCCUGUGCUACACAUCGUAUGUACCGAAUCGGAAGGGAAGGGAAGGAAAGUAUUAUGUUACGCCGUUCGGAUCUGCACUUCCAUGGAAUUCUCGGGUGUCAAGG: -0.317
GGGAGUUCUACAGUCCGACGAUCGUCCUGUGCUACACAUCGUAUGUACCGAAUCGGGGAAAAAGGGGAAAAAGGGGUGGGGAAAGUAUUAUGUUACGCCGUUCGGAUCUGCACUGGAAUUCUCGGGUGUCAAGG: 0.35
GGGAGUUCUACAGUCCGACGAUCAAGUCCUGUGCUACACAUCGUAUGUACCGAAUCGGGGCCCCGGCCCCGGCCCCGGGAAAGUAUUAUGUUACGCCGUUCGGAUCUGCACUUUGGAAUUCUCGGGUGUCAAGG: -0.782
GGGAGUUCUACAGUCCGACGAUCCACAGACAACACGCACCCACACAGACACGGAGGGAAGGGGUUGGGAUGGGGACAGGGUGCACAGCAGGGCGGGGUAGGACCCCAGCCCCUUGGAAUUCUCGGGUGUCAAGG: 1.25
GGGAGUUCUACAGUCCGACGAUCUCAAGUCCUGUGCUACACAUCGUAUGUACCGAAUCGGGCCCGGGCCCGGCCCGGAAAGUAUUAUGUUACGCCGUUCGGAUCUGCACUUCCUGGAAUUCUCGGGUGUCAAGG: -0.728
